Experimental data gathered from unrelated publications.
Values joined by “and” are separate records of one study, mostly repeats; a detail may differ. ± marks the error that the study gave. Converted amounts (≈) assume the structure as drawn.

`O=C(O)/C=C/C(=O)O.Oc1cccc2[nH]cc(CCNC3CCCCC3)c12`: “head twitch count” 1.7 ± 0.2 (C57BL/6J mice; subcutaneous, 30 mg/kg).
With `COc1c(CCC[P+](c2ccccc2)(c2ccccc2)c2ccccc2)cc2c(c1OC)OCO2.[I-]` the Log10GI50 was -5.62 log M (LOX IMVI; SRB).
`CCCCNCCc1c[nH]c2cccc(O)c12.O=C(O)/C=C/C(=O)O` — result for “head twitch count”: 8.7 ± 1.1 (C57BL/6J mice; subcutaneous, 10 mg/kg).
`CCCCCCCCCCCC[N+](C)(C)CCCCCCCCCC[N+](C)(C)CCCCCCCCCCCC.[Br-].[Br-]` gave a protection of 34.1 ± 10.8% (influenza A virus A/PR/8/34 (H1N1); concentration not given, co-treatment).
Under “hepatic total cholesterol”, `C[C@H]1O[C@@H](O[C@H]2CC[C@@]3(C)[C@@H](CC[C@]4(C)[C@@H]3C=C[C@]35OC[C@@]6(CCC(C)(C)C[C@H]63)[C@@H](O)C[C@]54C)[C@]2(C)CO)[C@H](O)[C@@H](O[C@@H]2O[C@H](CO)[C@@H](O)[C@H](O)[C@H]2O)[C@H]1O` is recorded as 0.0936 mmol/g protein and 0.0837 mmol/g protein and 0.0719 mmol/g protein and 0.0998 mmol/g protein and 0.0776 mmol/g protein and 0.0425 mmol/g protein (mouse, pair-fed, AAV8-TBG-Null, liver; dose not given, high dose).
`COP(=S)(OC)Oc1ccc([N+](=O)[O-])c(C)c1` has a cross-reactivity of less than 1% (nanobody A4; ic-ELISA; concentration not given; relative to: coumaphos IC50 over compound IC50, molar basis).
`CC[C@H](C)[C@@H]1NC(=O)[C@@H]2CCCN2C(=O)[C@H](CC(C)C)NC(=O)[C@H](CC(C)C)NC(=O)CNC(=O)[C@@H](NC(=O)[C@@H](NC(=O)[C@H](CC(=O)O)NC(=O)CNC(=O)[C@@H](NC(=O)[C@H](C)NC(=O)CNC(=O)[C@H](CCCCN)NC(=O)[C@H](CC(C)C)NC(=O)[C@H](CC(C)C)NC(=O)[C@H](CCCCN)NC(=O)CNC(=O)[C@@H](NC(=O)[C@@H](N)CC(C)C)C(C)C)C(C)C)C(C)C)CSSC[C@@H](C(=O)O)NC1=O`: “log2 fold change” -1.87 (RNA-seq, item: Gimap3 mRNA; mouse traumatic brain injury, frontal cortex and hippocampus; dose not given; relative to: TBI plus compound vs TBI).
Under “lung virus titre”, `O=C1c2c(O)c(=O)ccn2N([C@@H]2c3ccccc3SCc3c2ccc(F)c3F)[C@@H]2COCCN12` is recorded as 3.5 log10 TCID50/mL and 4 log10 TCID50/mL and 3.67 log10 TCID50/mL and 3 log10 TCID50/mL and 4.22 log10 TCID50/mL (influenza A virus H1N1; A/WSN/33, BALB/c mice, lung; subcutaneous, 0.125 mg/kg every 6 h, 24 h).
`CCC(CC)O[C@@H]1C=C(C(=O)O)C[C@H](N)[C@H]1NC(C)=O` has a protection of 78.4 ± 0.3% (influenza A virus A/PR/8/34 (H1N1); concentration not given, co-treatment).
For `COc1c(C)c2c(c(O)c1C/C=C(\C)CCC(=O)O)C(=O)OC2`, the IC50 was 676 nM (bladder cancer cell lines; cell proliferation; average over lines).
`COc1cc(CCC[P+](c2ccccc2)(c2ccccc2)c2ccccc2)c(OC)c2c1OCO2.[I-]` gave a Log10LC50 of -4.39 log M (LOX IMVI; SRB).
Under “head twitch count”, `C=CCNCCc1c[nH]c2cccc(O)c12.C=CCNCCc1c[nH]c2cccc(O)c12.O=C(O)/C=C/C(=O)O` is recorded as 15.3 ± 2.6 (C57BL/6J mice; subcutaneous, 0.3 mg/kg).
With `CCCCCCCCCCCC[N+](C)(C)CCOCC[N+](C)(C)CCCCCCCCCCCC.[Br-].[Br-]` the protection was 86.2 ± 6.8% (influenza A virus A/PR/8/34 (H1N1); concentration not given, co-treatment).
Under “EFS ratio (T/C)”, `CN1CCN(S(=O)(=O)c2cc([N+](=O)[O-])ccc2N(CCOS(C)(=O)=O)CCOS(C)(=O)=O)CC1` is recorded as 5.5 (NSG mice, sample BC PDX; intraperitoneal, 25 mg/kg weekly x3; relative to: treated over vehicle).
With `CCCCCCCCCCCCCCCCCC[N+](C)(C)Cc1ccc(C[N+](C)(C)CCCCCCCCCCCCCCCCCC)cc1.[Br-].[Br-]` the protection was 60.1 ± 2.9% (influenza A virus A/PR/8/34 (H1N1); concentration not given, co-treatment).
`CCCNCCc1c[nH]c2cccc(O)c12.CCCNCCc1c[nH]c2cccc(O)c12.O=C(O)/C=C/C(=O)O` has a distance travelled of 2240 ± 226 cm (C57BL/6J mice; subcutaneous, 1 mg/kg, 30 min).
The GI50 of `CC(C)N1CCC(NC2CCN(c3cccc(-c4cc5cc(F)ccc5[nH]4)c3)CC2)CC1` is reported as 1670 nM (UO-31).
`CC(C)NCCc1c[nH]c2cccc(O)c12.O=C(O)/C=C/C(=O)O` — result for “head twitch count”: 10 ± 1.6 (C57BL/6J mice; subcutaneous, 1 mg/kg).
`CC[C@H](C)[C@@H]1NC(=O)[C@H](CO)NC(=O)[C@@H]2CCCN2C(=O)[C@@H](NC(=O)CN)CSSC[C@@H]2NC(=O)CNC(=O)[C@H](C)NC(=O)[C@H](CC(C)C)NC(=O)[C@@H]3CSSC[C@@H](C(=O)NCC(=O)O)NC(=O)[C@H](Cc4ccccc4)NC(=O)CNC(=O)[C@H](CC(N)=O)NC(=O)[C@@H]4CCCN4C(=O)CNC(=O)[C@H](CSSC[C@H](NC(=O)[C@H](CCCNC(=N)N)NC(=O)[C@H](Cc4c[nH]cn4)NC(=O)[C@H](CCCNC(=N)N)NC(=O)[C@H](CCCCN)NC(=O)[C@H](C(C)C)NC(=O)[C@H](CCCNC(=N)N)NC(=O)[C@H](CC(N)=O)NC1=O)C(=O)N[C@@H](CCCCN)C(=O)N[C@@H](CCC(N)=O)C(=O)N[C@@H](CC(=O)O)C(=O)N[C@@H](CO)C(=O)N[C@@H](CC(=O)O)C(=O)N3)NC(=O)[C@H](C(C)C)NC2=O` has an IC50 of 108 ± 28 nM (HEK293, Wnt1-transfected; Wnt signalling).
For `CCCCCCCCCCCC[N+](C)(C)CCCNCCC[N+](C)(C)CCCCCCCCCCCC.[Br-].[Br-]`, the protection was 71.2 ± 12.4% (influenza A virus A/PR/8/34 (H1N1); concentration not given, post-treatment).
For `CCNCCc1c[nH]c2cccc(O)c12.CCNCCc1c[nH]c2cccc(O)c12.O=C(O)CCC(=O)O`, “head twitch response” read 17.7 ± 4.3 count/30 min (C57BL/6J mice; subcutaneous, 30 mg/kg).
The activity score of `COc1ccc(OC)c(C(O)C(C)N)c1` (stereo not shown) is reported as -3.2 (human iPSC-derived cardiomyocytes; MyBP-C/MYH ratio, plate-normalised SD score; concentration not given, primary screen; direction not given).
With `COc1cc(NC(=O)Cn2ccc3cc(F)c(-c4cnn(C)c4)cc32)cc(OC)c1OC` the IC90 was 1240 nM (Plasmodium falciparum; parasite growth; Dd2-B2 PfATP4 V178I recrudescent).
Under “pathway fold enrichment”, `Nc1ncnc2c1ncn2[C@@H]1O[C@@H]2COP(=O)(O)O[C@H]3[C@@H](O)[C@H](n4cnc5c(=O)[nH]cnc54)O[C@@H]3COP(=O)(O)O[C@H]2[C@H]1O` is recorded as 2.22 (HFF-1; RNA sequencing, item: Hemostasis; upregulated pathway; relative to: Zika virus alone).
The MBC50 of `CC[C@H](C)[C@H](NC(=O)[C@H](C)NC(=O)[C@H](CCCCN)NC(=O)[C@H](CC(C)C)NC(=O)[C@H](C)NC(=O)[C@@H](NC(=O)[C@H](Cc1c[nH]cn1)NC(=O)[C@H](CC(C)C)NC(=O)[C@@H](NC(=O)[C@@H](NC(=O)[C@H](CCCCN)NC(=O)[C@H](C)NC(=O)[C@H](C)NC(=O)[C@H](CO)NC(=O)[C@H](CCCCN)NC(=O)[C@H](Cc1ccccc1)NC(=O)[C@@H](NC(=O)[C@H](CCCCN)NC(=O)[C@H](CC(C)C)NC(=O)[C@H](Cc1ccccc1)NC(=O)[C@H](CO)NC(=O)[C@H](CCCCN)NC(=O)[C@H](Cc1c[nH]c2ccccc12)NC(=O)[C@H](CCCCN)NC(C)=O)[C@@H](C)O)[C@@H](C)O)C(C)C)[C@@H](C)O)C(=O)N[C@@H](CO)C(=O)N[C@@H](CO)C(N)=O` is reported as 32 µg/mL (≈ 10.9 µM) (Enterococcus faecalis; ATCC 29212).
The protection of `CCCCCCCCCCCCCCCCCC[N+](C)(C)CCCCCCCCCCCC[N+](C)(C)CCCCCCCCCCCCCCCCCC.[Br-].[Br-]` is reported as 62.5 ± 3.1% (influenza A virus A/PR/8/34 (H1N1); concentration not given, co-treatment).
`CC(C)(C)NCCc1c[nH]c2cccc(O)c12.CC(C)(C)NCCc1c[nH]c2cccc(O)c12.O=C(O)/C=C/C(=O)O` gave a distance travelled of 2340 ± 359 cm (C57BL/6J mice; subcutaneous, 30 mg/kg, 30 min).
`CN1CCN(C2(CNC3CCN(c4cccc(-c5cc6cc(F)ccc6[nH]5)c4)CC3)CCC2)CC1` has a GI50 of 1870 nM (NCI-H322M).

A few entries again:
`COc1cc(CCC[P+](c2ccccc2)(c2ccccc2)c2ccccc2)c(OC)c2c1OCO2.[I-]` gave a Log10LC50 of -4.39 log M (LOX IMVI; SRB).
Under “head twitch count”, `C=CCNCCc1c[nH]c2cccc(O)c12.C=CCNCCc1c[nH]c2cccc(O)c12.O=C(O)/C=C/C(=O)O` is recorded as 15.3 ± 2.6 (C57BL/6J mice; subcutaneous, 0.3 mg/kg).
With `CCCCCCCCCCCC[N+](C)(C)CCOCC[N+](C)(C)CCCCCCCCCCCC.[Br-].[Br-]` the protection was 86.2 ± 6.8% (influenza A virus A/PR/8/34 (H1N1); concentration not given, co-treatment).
